# Results from different studies.
# Organism: Escherichia coli
Compound,test,system,setting,MIC
CC[C@H](C)[C@H](NC(=O)CNC(=O)[C@@H](NC(=O)CNC(=O)[C@@H](NC(=O)CNC(=O)[C@@H](NC(=O)[C@@H](NC(=O)[C@H](CCC(N)=O)NC(=O)[C@H](CCC(=O)O)NC(=O)[C@@H](NC(=O)[C@H](CC(C)C)NC(=O)[C@H](CCCNC(=N)N)NC(=O)[C@H](Cc1ccccc1)NC(=O)[C@@H](NC(=O)[C@H](CC(N)=O)NC(=O)[C@H](CCCCN)NC(=O)CNC(=O)[C@H](CCSC)NC(=O)[C@H](CCCCN)NC(=O)CNC(=O)[C@H](CC(C)C)NC(=O)[C@H](CCCCN)NC(=O)[C@H](CCCCN)NC(=O)CNC(=O)[C@H](Cc1ccccc1)NC(=O)[C@H](CCCCN)NC(=O)[C@H](CCCCN)NC(=O)[C@H](CC(C)C)NC(=O)[C@H](Cc1c[nH]c2ccccc12)NC(=O)CN)C(C)C)C(C)C)C(C)C)C(C)C)C(C)C)C(C)C)C(=O)N[C@@H](CC(N)=O)C(=O)N[C@@H](C)C(=O)N[C@@H](CC(C)C)C(=O)N[C@@H](CO)C(=O)O,broth microdilution,"ATCC 25922, Mueller-Hinton broth","16 to 20 h, 37 °C",4.39 µg/mL
CC(C)[C@H](NC(=O)C(NC(=O)CC[C@H](N)C(=O)O)C(O)C(N)=O)C(=O)N(C)CC(=O)N[C@H](Cc1c[nH]c2ccc([N+](=O)[O-])cc12)C(=O)NC[C@@H]1NC(=O)[C@@H](Cc2c[nH]c3ccc([N+](=O)[O-])cc23)NC1=O (stereo partly shown),,MG1655,"18 h, 37 °C",100 µM
CC(C)C[C@@H](NC(=O)[C@H](NC(=O)[C@@H](CCCCN)NC(=O)[C@@H](CCCCN)NC(=O)[C@@H](CC(C)C)NC(=O)[C@@H](Cc1c[nH]c2ccccc12)NC(=O)[C@@H](CCCCN)NC(=O)[C@@H](Cc1c[nH]c2ccccc12)NC(=O)[C@@H](CC(C)C)NC(=O)[C@@H](CCCCN)NC(=O)[C@@H](CCCCN)NC(=O)[C@H](N)C(C)C)C(C)C)C(N)=O,,,"24 h, 37 °C, Mueller-Hinton broth, CaCl2 2.5 mM",32 µM
CC[C@H](C)[C@H](NC(=O)CNC(=O)[C@H](CC(=O)O)NC(=O)[C@H](CCCNC(=N)N)NC(=O)[C@@H](NC(=O)[C@H](Cc1c[nH]cn1)NC(=O)[C@H](CCC(N)=O)NC(=O)CNC(=O)[C@@H](NC(=O)[C@H](CCCNC(=N)N)NC(=O)[C@H](CCC(=O)O)NC(=O)[C@@H](NC(=O)[C@H](CCCCN)NC(=O)[C@H](CCCCN)NC(=O)[C@H](Cc1ccccc1)NC(=O)[C@@H](NC(=O)[C@H](CCCCN)NC(=O)[C@H](Cc1c[nH]c2ccccc12)NC(=O)[C@@H](N)CCCCN)[C@@H](C)CC)[C@@H](C)CC)C(C)C)C(C)C)C(=O)N[C@H](C(=O)N[C@@H](CCCCN)C(=O)N[C@@H](C)C(=O)NCC(=O)N[C@@H](CO)C(=O)N[C@@H](C)C(=O)N[C@H](C(=O)N[C@@H](CCC(N)=O)C(=O)N[C@H](C(=O)N[C@H](C(=O)NCC(=O)N[C@@H](CCC(N)=O)C(=O)N[C@@H](C)C(=O)N[C@@H](C)C(=O)N[C@@H](C)C(=O)N[C@H](C(=O)N[C@@H](C)C(=O)N[C@@H](CCCCN)C(N)=O)[C@@H](C)CC)C(C)C)C(C)C)C(C)C)[C@@H](C)CC,"bacterial growth, broth microdilution",cation-adjusted Mueller Hinton broth,"18 h, 37 °C",≤ 0.062 µM
Cc1ccnc(-c2cc(C(=O)NCCCCCC(=O)N[C@@H](CCCNC(=N)N)C(=O)N[C@@H](Cc3c[nH]c4ccccc34)C(=O)N[C@@H](CCCNC(=N)N)C(=O)N[C@@H](Cc3c[nH]c4ccccc34)C(=O)N[C@@H](CCCNC(=N)N)C(=O)N[C@@H](Cc3c[nH]c4ccccc34)C(N)=O)ccn2)c1,,"ATCC 25922, susceptible","18 h, 37 °C, dark",16 µM
CC[C@H](C)[C@H](NC(=O)[C@@H](CCCNC(=N)N)NC(=O)[C@H](CCCNC(=N)N)NC(=O)[C@@H]1CCCN1C(=O)[C@H](Cc1c[nH]c2ccccc12)NC(=O)[C@H](CCCNC(=N)N)NC(=O)[C@@H]1CCCN1C(=O)[C@H](CCCNC(=N)N)NC(=O)[C@@H]1CCCN1C(=O)[C@H](CC(C)C)NC(=O)[C@H](Cc1ccc(O)cc1)NC(=O)[C@@H]1CCCN1C(=O)[C@@H]1CCCN1C(=O)[C@H](CCCCN)NC(=O)[C@H](CC(=O)O)NC(=O)[C@@H](N)C(C)C)C(=O)N[C@@H](Cc1ccc(O)cc1)C(=O)N[C@@H](CC(N)=O)C(=O)N[C@H](CCCNC(=N)N)C(N)=O,broth microdilution,MC4100,"18 h, 37 °C, 25% MHB2",4 µg/mL
CC[C@H](C)[C@H](N)C(=O)N[C@H](C)C(=O)N[C@@H](CC(C)C)C(=O)N[C@H](CCC(=O)O)C(=O)N[C@H](C(=O)N[C@H]1CCCCNC(=O)[C@H](CC(N)=O)NC(=O)[C@@H](CC(=O)O)NC(=O)[C@H](Cc2c[nH]cn2)NC(=O)[C@@H](Cc2ccccc2)NC(=O)[C@H]([C@@H](C)CC)NC(=O)[C@@H](CCCN)NC1=O)[C@@H](C)CC,,ATCC 25922,"18 h, 37 °C, 0.3 mM ZnSO4 LB",> 64 µg/mL
CC1(C)[C@H](NC(=O)/C(=N\OCCN)c2csc(N)n2)C(=O)N1OS(=O)(=O)O,agar dilution,"08-85, mcr-1",,16 µg/mL
CC[C@H](C)[C@@H]1NC(=O)[C@@H](CC(C)C)NC(=O)[C@H](CCN)NC(=O)[C@@H](NC(=O)[C@@H](CO)NC(=O)[C@@H](NC(=O)[C@H](CCN)NC(=O)c2ccc(-c3ccccc3)cc2)[C@@H](C)O)CCNC(=O)[C@H](CC(C)C)NC(=O)[C@H](CCN)NC(=O)[C@H](CCN)NC1=O,broth microdilution,"mcr-1, colistin-resistant",,4 to 8 µg/mL
CC[C@H](C)[C@H](NC(=O)[C@@H](CCCNC(=N)N)NC(=O)[C@H](CCCNC(=N)N)NC(=O)[C@H](CCC(N)=O)NC(=O)[C@H](Cc1c[nH]c2ccccc12)NC(=O)[C@H](CCCNC(=N)N)NC(=O)[C@@H]1CCCN1C(=O)[C@H](CCCNC(=N)N)NC(=O)[C@@H]1CCCN1C(=O)[C@H](CC(C)C)NC(=O)[C@H](Cc1ccc(O)cc1)NC(=O)[C@@H]1CCCN1C(=O)[C@@H]1CCCN1C(=O)[C@H](CCCCN)NC(=O)[C@H](CC(=O)O)NC(=O)[C@@H](N)C(C)C)C(=O)N[C@@H](Cc1ccc(O)cc1)C(=O)N[C@@H](CC(N)=O)C(=O)N[C@H](CCCNC(=N)N)C(N)=O,broth microdilution,BW25113,"18 h, 37 °C, 25% MHB2",8 µg/mL
N=C(N)NCCC[C@@H]1NC(=O)[C@H](CCCNC(=N)N)NC(=O)[C@@H](CCCNC(=N)N)NC(=O)[C@@H](CCCNC(=N)N)NC(=O)[C@@H](C(c2ccccc2)c2ccccc2)NC(=O)[C@@H](Cc2c[nH]c3ccccc23)NC(=O)[C@@H](C(c2ccccc2)c2ccccc2)NC1=O,,"ATCC BAA-2452, NDM-1 CRE",,8 µg/mL
CC[C@H](C)[C@H](NC(=O)[C@@H](NC(=O)[C@H](CCCCN)NC(=O)[C@H](CCCCN)NC(=O)[C@@H](NC(=O)[C@H](Cc1c[nH]c2ccccc12)NC(=O)[C@H](CCCCN)NC(=O)[C@H](Cc1c[nH]c2ccccc12)NC(=O)[C@H](CC(C)C)NC(=O)[C@H](CCCCN)NC(=O)[C@H](CCCCN)NC(=O)[C@@H](N)C(C)C)[C@@H](C)CC)C(C)C)C(N)=O,,,"24 h, 37 °C, Mueller-Hinton broth, FeCl3 4 µM",16 µM
CC1(C)C(NC(=O)C(=NOCC(=O)N2CC3CCCC3C2C(=O)O)c2csc(N)n2)C(=O)N1OS(=O)(=O)O (stereo not shown),agar dilution,"08-85, mcr-1",,8 µg/mL
CC[C@H](C)[C@H](NC(=O)[C@H](Cc1c[nH]c2ccccc12)NC(=O)[C@H](CCCCN)NC(=O)[C@H](CC(C)C)NC(=O)[C@@H](NC(=O)[C@@H](NC(=O)CNC(=O)[C@H](CCCCN)NC(=O)[C@H](Cc1c[nH]cn1)NC(=O)[C@H](CCCCN)NC(=O)[C@H](Cc1c[nH]c2ccccc12)NC(=O)[C@H](C)NC(=O)[C@H](CC(C)C)NC(=O)[C@H](CO)NC(=O)[C@@H](NC(=O)[C@H](Cc1ccc(O)cc1)NC(=O)[C@H](CCCCN)NC(=O)[C@H](CCC(N)=O)NC(=O)CNC(=O)[C@H](CCCCN)NC(=O)[C@@H](NC(=O)[C@H](C)NC(=O)[C@H](CC(C)C)NC(=O)[C@H](Cc1ccccc1)NC(=O)[C@H](CCC(N)=O)NC(=O)[C@@H](NC(=O)[C@H](CC(C)C)NC(=O)[C@H](CCCCN)NC(=O)[C@H](CCSC)NC(=O)[C@H](Cc1ccccc1)NC(=O)[C@H](C)NC(=O)[C@H](C)NC(=O)[C@@H](N)CCSC)[C@@H](C)CC)[C@@H](C)O)C(C)C)[C@@H](C)O)[C@@H](C)CC)C(=O)N[C@@H](CC(N)=O)C(N)=O,broth microdilution,ATCC 15597,"24 h, 37 °C",6 µg/mL
CC[C@H](C)[C@H](NC(=O)[C@@H](CCCNC(=N)N)NC(=O)[C@H](CCCNC(=N)N)NC(=O)[C@@H]1CCCN1C(=O)[C@@H]1CCCN1C(=O)[C@H](CCCNC(=N)N)NC(=O)[C@@H]1CCCN1C(=O)[C@H](CCCNC(=N)N)NC(=O)[C@@H]1CCCN1C(=O)[C@H](CCSC)NC(=O)[C@H](Cc1ccc(O)cc1)NC(=O)[C@@H]1CCCN1C(=O)[C@@H]1CCCN1C(=O)[C@H](CCCCN)NC(=O)[C@H](CC(=O)O)NC(=O)[C@@H](N)C(C)C)C(=O)N[C@@H](Cc1ccc(O)cc1)C(=O)N[C@@H](CC(N)=O)C(=O)N[C@H](CCCNC(=N)N)C(N)=O,broth microdilution,ATCC 25922,"18 h, 37 °C, 25% MHB2",8 µg/mL
CC(C)C[C@H](NC(=O)[C@H](CCC(=O)O)NC(=O)[C@H](C)NC(=O)[C@H](CC(C)C)NC(=O)[C@H](CCC(=O)O)NC(=O)[C@H](C)NC(=O)[C@H](CCC(N)=O)NC(=O)[C@H](CC(C)C)NC(=O)[C@H](CCC(=O)O)NC(=O)[C@H](Cc1ccc(O)cc1)NC(=O)[C@H](CC(C)C)NC(=O)[C@H](CCC(N)=O)NC(=O)[C@H](C)NC(=O)[C@H](CCC(=O)O)NC(=O)[C@H](CC(C)C)NC(=O)[C@H](CCC(N)=O)NC(=O)[C@H](C)NC(=O)[C@H](CC(C)C)NC(=O)[C@H](CCC(=O)O)NC(=O)[C@H](C)NC(=O)[C@@H](N)CCC(N)=O)C(N)=O,,K12,24 h,> 250 µM
CC[C@H](C)[C@H](NC(=O)[C@@H](CCCNC(=N)N)NC(=O)[C@H](CCCNC(=N)N)NC(=O)[C@H](Cc1c[nH]c2ccccc12)NC(=O)[C@H](Cc1c[nH]c2ccccc12)NC(=O)[C@H](CCCNC(=N)N)NC(=O)[C@@H]1CCCN1C(=O)[C@H](CCCNC(=N)N)NC(=O)[C@@H]1CCCN1C(=O)[C@H](CC(C)C)NC(=O)[C@H](Cc1ccc(O)cc1)NC(=O)[C@@H]1CCCN1C(=O)[C@@H]1CCCN1C(=O)[C@H](CCCCN)NC(=O)[C@H](CC(=O)O)NC(=O)[C@@H](N)C(C)C)C(=O)N[C@@H](Cc1ccc(O)cc1)C(=O)N[C@@H](CC(N)=O)C(=O)N[C@H](CCCNC(=N)N)C(N)=O,broth microdilution,MC4100,"18 h, 37 °C, 25% MHB2",8 µg/mL
CSCC[C@H](NC=O)C(=O)N[C@@H](CCCNC(=N)N)C(=O)N[C@H](C(=O)NCC(=O)N[C@@H](CC(N)=O)C(=O)N[C@@H](C)C(=O)N[C@@H](CC(N)=O)C(=O)O)[C@@H](C)O,broth dilution,K12 MG1655 wild type,,> 200 µM
COc1c(NC(=O)c2ccc(NC(=O)[C@H](CC#N)NC(=O)c3ccc(NC(=O)[C@@H](N)Cc4ccccc4)c(OC)c3O)c(OC)c2O)ccc(C(=O)Nc2ccc(C(=O)O)cc2)c1O,,,,> 16 µg/mL

# For quick reference, copied from above:
Compound,test,system,setting,MIC
CC[C@H](C)[C@H](NC(=O)[C@@H](NC(=O)[C@H](CCCCN)NC(=O)[C@H](CCCCN)NC(=O)[C@@H](NC(=O)[C@H](Cc1c[nH]c2ccccc12)NC(=O)[C@H](CCCCN)NC(=O)[C@H](Cc1c[nH]c2ccccc12)NC(=O)[C@H](CC(C)C)NC(=O)[C@H](CCCCN)NC(=O)[C@H](CCCCN)NC(=O)[C@@H](N)C(C)C)[C@@H](C)CC)C(C)C)C(N)=O,,,"24 h, 37 °C, Mueller-Hinton broth, FeCl3 4 µM",16 µM
CC1(C)C(NC(=O)C(=NOCC(=O)N2CC3CCCC3C2C(=O)O)c2csc(N)n2)C(=O)N1OS(=O)(=O)O (stereo not shown),agar dilution,"08-85, mcr-1",,8 µg/mL
CC[C@H](C)[C@H](NC(=O)[C@H](Cc1c[nH]c2ccccc12)NC(=O)[C@H](CCCCN)NC(=O)[C@H](CC(C)C)NC(=O)[C@@H](NC(=O)[C@@H](NC(=O)CNC(=O)[C@H](CCCCN)NC(=O)[C@H](Cc1c[nH]cn1)NC(=O)[C@H](CCCCN)NC(=O)[C@H](Cc1c[nH]c2ccccc12)NC(=O)[C@H](C)NC(=O)[C@H](CC(C)C)NC(=O)[C@H](CO)NC(=O)[C@@H](NC(=O)[C@H](Cc1ccc(O)cc1)NC(=O)[C@H](CCCCN)NC(=O)[C@H](CCC(N)=O)NC(=O)CNC(=O)[C@H](CCCCN)NC(=O)[C@@H](NC(=O)[C@H](C)NC(=O)[C@H](CC(C)C)NC(=O)[C@H](Cc1ccccc1)NC(=O)[C@H](CCC(N)=O)NC(=O)[C@@H](NC(=O)[C@H](CC(C)C)NC(=O)[C@H](CCCCN)NC(=O)[C@H](CCSC)NC(=O)[C@H](Cc1ccccc1)NC(=O)[C@H](C)NC(=O)[C@H](C)NC(=O)[C@@H](N)CCSC)[C@@H](C)CC)[C@@H](C)O)C(C)C)[C@@H](C)O)[C@@H](C)CC)C(=O)N[C@@H](CC(N)=O)C(N)=O,broth microdilution,ATCC 15597,"24 h, 37 °C",6 µg/mL
